# Experimental data collected from several papers.
# Each numbered part is a random draw from the data of one study; scales do not carry over between parts. Positions count from the first letter of the parent shown.

# Sample 1
# Target: RNA binding protein fox-1 homolog 2, RRM domain, GST-SBP tag (RBFOX2, Homo sapiens, UniProt O43251-10, residues 100-194)
# Technique: RNA Bind-n-Seq
# Form: RNA
# Medium: in vitro
# Concentration: 365 nM
# Setting: natural RNA segment, single round, ends assumed
# Reference: no-protein control
# Direction: higher = stronger binding
# Shared flanks, not repeated: GGGAGUUCUACAGUCCGACGAUC … UGGAAUUCUCGGGUGCCAA
# Target sequence (chain): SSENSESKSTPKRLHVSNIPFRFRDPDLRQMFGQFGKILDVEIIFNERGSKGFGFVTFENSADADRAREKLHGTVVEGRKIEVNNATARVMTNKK
Sequence,RBNS enrichment (R)
CAAUGUGAAAAUCACGUUUGCUAUUUAUAAACUUGUCCUUAGAUUAAUGUGUCUGGACAGAUUGUGGGAGUAAGUGAUUCUUCUAAGAAUUAGAUACUUGUCACUGCCUA,0.284
UUUUUUUUUUUUUACUCCCCCUCUAAACACUGCUGCUGCCUUAAUUUUAGAAAGCAGCUUACUAGUUUACCCUUGUGGUAUAAAGUAUUAUAAAUUGUUGUGAAUUUGAA,0.715
GAUUUUGGGCCUAAAGAUGCCAGUGCUUUUCAGCUGUGGUGUGCAUGUCAUUAACUACCCCUCUCUGUUUUUACCCCUCUACCUUUGCAGGACCCGGGUCAUGGGUCAGU,6.01
UGGUCACUGCCCUUACCUGACCCUCACAGAAAGAGAGCUCUGAGCAGGUGAGGGGGUCUGCGGUGGCUCCUGUCUUCCCUGCAGCAGGGAAGGAGGGCCGUGUGGUGCUU,0.57
GGGCAGAAACGUUGGGCUCCAUUCCUCACGGAGAGAGCCAAGAAGUGCACAGUCCCAGAGUCACGAGGCGUGGACUUCCUUCCCCACGAUGGGCCAGGGGGCCUUACCAU,0.279
AAAUAAUACCAAGUAAAAUAAUACAGAUAUUAUUAAAGUUUCUGGUUUUGAGGUGUUGUAGAUAAAUGUAUUUAUGUGCCUAGUGGGGAAUCCAAUAUUAUGAAUAUGAA,1.29
AGCUCCAGGUCCUGACCAGUUUGCACACACACUCUGGAGCUGUAUCUGGCGCUUUUUCUAUCGUCUCUGCUAUGUCACUGAAUUAACCACUGUACGUGGCAGAGGUGGCA,0.505
UUUGUUACUUCGUGUAUUUGAGUUACUUUCUAUUUUCCACUUUGUAUGUCAUCCACUGCUUGGGGAAUUUUCCUCAGGUACCUACACACCCUGAUAUUUGAAACCAAAAC,0.647

# Sample 2
# Target: CCNA2, cyclin fold, Cln2 fusion (human)
# Technique: yeast growth competition, sequencing
# Medium: yeast
# Setting: strong parent motif
# Reference: not given
# Direction: higher = stronger binding
# Starting sequence: CDC6 docking peptide (human); TLKGRRLVFDNQL
Variant,normalised enrichment score
Q12S,2.4
N11I,1.98
L2D,0.843
K3H,1.37
R5K,2.27
R5C,0.109
V8I,3.57
R6A,0.952
V8S,2.34
L13H,2.48
G4E,-0.425
K3S,1.76
G4Q,1.76
Q12L,3.41
R5L,1.05
T1Q,2.17
K3D,0.0741
T1M,3.82
D10G,0.994
R6E,-0.833
D10Q,0.907
K3E,0.556
L2F,2.96
L7Q,1.54
T1G,3.4

# Sample 3
# Target: Max dimerization protein 1, bHLH-zipper, MAX partner unstated (MXD1, Homo sapiens, UniProt Q05195, residues 56-136)
# Technique: protein-binding microarray
# Form: double-stranded DNA, one strand shown
# Medium: in vitro
# Concentration: not given
# Setting: k-mer, scored over probes, only values ≥0.25
# Direction: higher = stronger binding
# Residues (chain): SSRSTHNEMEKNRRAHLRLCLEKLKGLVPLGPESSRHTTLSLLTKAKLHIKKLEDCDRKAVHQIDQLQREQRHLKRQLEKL
Sequence,E-score
GCACGCAC,0.272
CCACATGA,0.417
GGTAAGCA,0.255
ACCACGCT,0.386
ATGGGTGC,0.282
ATGAGGTG,0.253
GACCCCGC,0.258
CATATGCC,0.283
CACGTGCC,0.489
CGTGGAGA,0.316
ACATGTGG,0.466
AGACCACG,0.308
CGAGCACA,0.288
ACATGTAC,0.324
AAACGTGT,0.36
CGGTGCAC,0.281
CAGCCATG,0.261
ACGTGCCT,0.377
ATGTGGAA,0.273
CATGTCTA,0.307
GACCACGA,0.329
CGTGCCGC,0.268
ACGGGGGA,0.299
CATGCCGC,0.348

# Sample 4
# Target: Ras GTPase-activating protein-binding protein 1, full length (G3BP1, Homo sapiens, UniProt Q13283)
# UniProt Q13283, sequence (whole entry, looked up): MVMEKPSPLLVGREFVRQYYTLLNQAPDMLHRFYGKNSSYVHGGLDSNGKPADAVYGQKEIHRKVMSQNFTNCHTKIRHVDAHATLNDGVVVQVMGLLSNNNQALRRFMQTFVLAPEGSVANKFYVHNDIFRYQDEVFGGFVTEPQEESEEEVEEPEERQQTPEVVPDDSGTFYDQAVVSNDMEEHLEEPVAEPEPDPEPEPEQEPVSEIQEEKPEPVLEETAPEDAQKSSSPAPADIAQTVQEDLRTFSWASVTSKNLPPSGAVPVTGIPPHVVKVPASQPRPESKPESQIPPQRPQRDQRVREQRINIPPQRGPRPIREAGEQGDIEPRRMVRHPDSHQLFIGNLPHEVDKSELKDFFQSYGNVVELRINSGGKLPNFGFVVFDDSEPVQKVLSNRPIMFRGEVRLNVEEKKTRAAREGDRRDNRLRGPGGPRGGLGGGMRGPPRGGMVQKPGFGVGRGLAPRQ
# Technique: RNA Bind-n-Seq
# Form: RNA
# Medium: in vitro
# Concentration: 200 nM
# Setting: whole 134-nt RNA, ends assumed
# Added: 150 mM LiCl
# Reference: input library
# Direction: higher = stronger binding
# Library: 7-deaza-guanosine replaces G
# Shared flanks, not repeated: GGGAGUUCUACAGUCCGACGAUC … UGGAAUUCUCGGGUGUCAAGG
Sequence,log2 enrichment
UGUGCUACACAUCGUAUGUACCGAAUCGGGGUUUUUGGGGAAAAAAAGGGGAAAAAAAGGGGAAAGUAUUAUGUUACGCCGUUCGGAUCU,-0.0379
ACCAUGCAGGUGGGCAUCUUUGGGAAGUGGAGCAAGGGGGGGAUAGGGAGGGGGGUAACACUUUGGGAACAGGUGGUCCCAGGUCGUUUC,0.369
UGGGAGGUGGAUUAUGUUUAUUUUUUUAGCUCAUUUCCAGGGGUGGGAAUUUUUUUUUAAUAUGUGUCAUGAAUAAAGUUGUUUUUGAAA,-1.01
CUGUGCUACACAUCGUAUGUACCGAAUCGGUUUUUUUGGGGUUUUUUUGGUUUUUUUGGGGAAAGUAUUAUGUUACGCCGUUCGGAUCUG,1.08
GCAGGAAGUAAAAACAAAUGGAAAUGCUUCGGAUAGUGGCAGGGGUGGGAGUUGCUAAGGAAAGGGUGGGAUGGGAGUGGGUAAAGAGUU,0.17
AAGUCCUGUGCUACACAUCGUAUGUACCGAAUCGGCCCCGGGCCCCGGGCCCCGGGAAAGUAUUAUGUUACGCCGUUCGGAUCUGCACUU,-1.49
CCUCAAGUCCUGUGCUACACAUCGUAUGUACCGAAUCGGGAAGGGAAGGAAGGAAAGUAUUAUGUUACGCCGUUCGGAUCUGCACUUCCA,-0.965
AAGUCCUGUGCUACACAUCGUAUGUACCGAAUCGGUUUGGUUUUUGGUUUUUUUGGAAAGUAUUAUGUUACGCCGUUCGGAUCUGCACUU,-0.997

# Excerpt of the above (sample 1):
Sequence,RBNS enrichment (R)
UUUGUUACUUCGUGUAUUUGAGUUACUUUCUAUUUUCCACUUUGUAUGUCAUCCACUGCUUGGGGAAUUUUCCUCAGGUACCUACACACCCUGAUAUUUGAAACCAAAAC,0.647
AAAUAAUACCAAGUAAAAUAAUACAGAUAUUAUUAAAGUUUCUGGUUUUGAGGUGUUGUAGAUAAAUGUAUUUAUGUGCCUAGUGGGGAAUCCAAUAUUAUGAAUAUGAA,1.29
UGGUCACUGCCCUUACCUGACCCUCACAGAAAGAGAGCUCUGAGCAGGUGAGGGGGUCUGCGGUGGCUCCUGUCUUCCCUGCAGCAGGGAAGGAGGGCCGUGUGGUGCUU,0.57
UUUUUUUUUUUUUACUCCCCCUCUAAACACUGCUGCUGCCUUAAUUUUAGAAAGCAGCUUACUAGUUUACCCUUGUGGUAUAAAGUAUUAUAAAUUGUUGUGAAUUUGAA,0.715
AGCUCCAGGUCCUGACCAGUUUGCACACACACUCUGGAGCUGUAUCUGGCGCUUUUUCUAUCGUCUCUGCUAUGUCACUGAAUUAACCACUGUACGUGGCAGAGGUGGCA,0.505
CAAUGUGAAAAUCACGUUUGCUAUUUAUAAACUUGUCCUUAGAUUAAUGUGUCUGGACAGAUUGUGGGAGUAAGUGAUUCUUCUAAGAAUUAGAUACUUGUCACUGCCUA,0.284
